Results from different studies.
Parts stem from different laboratories: compare values within a part only. Substitutions count along the parent as printed.

Block 1 — technique: DHFR PCA, deep sequencing; matrix: yeast; added: (+)-ABA 0.11 µM; baseline: wild-type fitted maximum; direction: higher = stronger binding
Target: ABI1, truncated, D143A, DHFR fusion (Arabidopsis thaliana)
Notes: methotrexate growth selection, single substitutions
Starting sequence: PYL1, truncated, DHFR fusion (Arabidopsis thaliana); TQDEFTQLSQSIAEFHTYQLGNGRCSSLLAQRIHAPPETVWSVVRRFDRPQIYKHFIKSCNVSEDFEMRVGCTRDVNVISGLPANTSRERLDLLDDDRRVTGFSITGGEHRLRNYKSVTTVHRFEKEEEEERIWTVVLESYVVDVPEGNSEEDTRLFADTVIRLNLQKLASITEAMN
Change	relative binding score [%]
H34P	-1.66
S9G	22.9
V78L	70.5
C25R	-0.475
P50F	-2.81
A175Y	5.54
R32N	2.69
F47V	-5.85
T101L	68.8
T6V	48.6
T173H	-5.01
S140F	-9.04
V145G	-4.92
V70R	4.82
R163T	29

Block 2 — technique: competition protein-binding microarray; form: double-stranded DNA, one strand shown; matrix: in vitro; tested at: 2 µM; added: Cbf1 competitor, 0.05 µM; direction: higher = stronger binding
Target: Phosphate system positive regulatory protein PHO4, full length, GST-tagged (PHO4, Saccharomyces cerevisiae, UniProt P07270, residues 1-312)
Notes: whole 60-bp probe, lowest competitor level
Target sequence (chain): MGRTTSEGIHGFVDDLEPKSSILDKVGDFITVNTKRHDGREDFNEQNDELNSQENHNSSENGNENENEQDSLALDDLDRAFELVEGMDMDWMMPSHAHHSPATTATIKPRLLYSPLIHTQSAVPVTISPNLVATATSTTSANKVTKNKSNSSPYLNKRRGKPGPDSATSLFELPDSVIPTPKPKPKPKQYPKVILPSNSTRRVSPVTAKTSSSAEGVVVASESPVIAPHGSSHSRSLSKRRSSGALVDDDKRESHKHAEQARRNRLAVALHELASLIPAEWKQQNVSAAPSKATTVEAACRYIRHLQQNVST
Sequence	fluorescence intensity [a.u.]
TGCGCAACAACTTGGATCGTGGGTGTATGTCTAGAAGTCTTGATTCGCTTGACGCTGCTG	7770
AAATTACTAAGTTCGCACGTGTTTTACCCCGTATGAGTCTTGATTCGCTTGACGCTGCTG	19800
GCGGTGAAAAGTGCAAATGTGATGACAGCACCGGAAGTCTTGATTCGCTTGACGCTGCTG	3340
AGTAACTACGTAAATCACCTGCTACCTCTCTGTTCTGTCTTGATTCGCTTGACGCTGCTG	4850
CGTCCTAGCGATTGAGAGGTGGGTGCCATGAGGAAGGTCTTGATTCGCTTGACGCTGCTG	6650
AAGACCGGTGCTTTGACCGTTTCCAATACGGAAAGAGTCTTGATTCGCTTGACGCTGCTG	3410
ATCTTTCGGAATTGTGAGGTGCAGGGATGCGGACTTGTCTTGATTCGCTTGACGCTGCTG	4500
CTAACGAAGGTTTGGGCTGTGGGTGACAAGCCAAGTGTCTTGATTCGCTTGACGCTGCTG	4250
ATTGACATAATCAGAAACGTGCTTTATCAATTGTGCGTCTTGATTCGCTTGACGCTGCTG	13400
CTAACGAAGGTTTGGCACGTGTTTTACAAGCCAAGTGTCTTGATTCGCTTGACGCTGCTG	18100
GTAATACATTTTCATCACATGAGAGTGTTCATTCAAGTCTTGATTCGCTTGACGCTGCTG	5800
AAATTACTAAGTTGTCGCGTGGGTGACGCCGTATGAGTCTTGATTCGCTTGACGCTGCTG	9710
CAAAACGTTCGTTTCTGCGTGCCAGTCTTCTCCACTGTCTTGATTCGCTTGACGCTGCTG	7790
GAGTAAAGATGTTAGCACGTGATGGGCTGCAGAGGTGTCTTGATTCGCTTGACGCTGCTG	18600
TTCGCCAGTGCTTTGCCCGTGCAAATCGGATGCTGGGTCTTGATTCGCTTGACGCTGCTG	6230
CAACCAACTGACGAAACCGTGATGGTTATCAGAACTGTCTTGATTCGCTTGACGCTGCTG	5100
TAATTCCAGGTTGAGCGCGTGGCCGCCTATAATCCAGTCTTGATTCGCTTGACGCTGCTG	10300
CACTTATCTGTTGAAAAGGTGTGCCTATAGCAACTAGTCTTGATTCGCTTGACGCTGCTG	6880
GTATTGTAAGACTGTCATGTGATTGCTGTCGCGTTCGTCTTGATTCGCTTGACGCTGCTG	6950
CCAACAAACGGAACACACGTGCGGAAGTTTCAAAGGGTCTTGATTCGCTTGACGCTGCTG	17700
TGTCTTTCACCTTGTCACGGGCGCTTAGCTCCAATTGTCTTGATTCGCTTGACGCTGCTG	5600
GCTCAAAAACCCCGTCACGTCATAAATCTTTCTGTTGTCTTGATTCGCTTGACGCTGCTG	4640
TCGTTTCCTAACTGGCACGTCACTTATAACGAGGTGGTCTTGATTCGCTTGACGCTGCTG	6920
CCTTCGAAGAAGTTGTTCGTGCCAGCCACAACGGAGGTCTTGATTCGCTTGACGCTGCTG	5870
CATACCCAACCTTGTCACCCTACTTAAGATATTTGTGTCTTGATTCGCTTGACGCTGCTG	4220

Block 3 — target: CCNF, cyclin fold, Cln2 fusion (human); technique: yeast growth competition, sequencing; matrix: yeast; notes: strong parent motif; baseline: not given; direction: higher = stronger binding
Starting sequence: GMNC docking peptide (human); KNAKRNLSSEFAN
Change	normalised enrichment score
E10N	0.89
N2S	0.921
K4E	-0.293
N6C	0.539
S8I	0.65
N6A	0.605
K4F	0.403
F11R	0.708
R5V	-0.263
K4D	-0.0317
A3M	0.811
S8V	0.784
N2K	1.17
N6Q	0.726
A12S	0.299
N6L	0.153
A3S	0.409
R5K	0.221
N2C	0.965
S8P	0.355
E10K	0.423
K4V	0.754
S8M	2.37

Block 4 — technique: protein binding microarray; form: double-stranded DNA, one strand shown; matrix: in vitro; tested at: not given; baseline: not given; direction: higher = stronger binding
Target: Histone acetyltransferase KAT6A, winged helix 1, GST fusion (KAT6A, Homo sapiens, UniProt Q92794, residues 1-85)
Notes: 8-mer, flanks averaged, mean of 2 arrays, mostly near background
Residues (chain): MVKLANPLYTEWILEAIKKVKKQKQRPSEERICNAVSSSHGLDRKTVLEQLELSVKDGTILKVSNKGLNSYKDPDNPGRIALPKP
Sequence	E-score
GCTTATAA	-0.0974
AGTACATG	-0.135
GACACCGA	0.101
ATCGTAAT	-0.00237
CGATCGTA	-0.113
AGTGATCG	-0.0253
GAAACTTA	-0.111
AAGTTAAT	-0.208
TATAGGCA	-0.27
ACATTAAG	-0.178
CTATTGTC	0.00304
AGACTTAG	-0.16
GACATTTA	-0.145
CAGGCCGC	0.285
CAAGAAAG	-0.227
CCAGGTCC	-0.00474
ACTTATGG	-0.146
GGATGTCA	0.0826
GTGGTAGA	-0.118

Block 5 — target: ATF3, bZIP domain (human); technique: DHFR protein complementation; matrix: yeast; baseline: wild-type JUN-FOS pair; direction: higher = stronger binding
Notes: single substitutions, most at no-binding floor
Starting sequence: JUN, bZIP domain (human); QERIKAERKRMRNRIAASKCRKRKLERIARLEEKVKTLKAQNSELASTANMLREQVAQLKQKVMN; partner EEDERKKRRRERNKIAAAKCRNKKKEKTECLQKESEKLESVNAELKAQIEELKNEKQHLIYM
Change	binding fitness [natural log]
A49S	-0.543
Q41G	-0.694
Q41M	-0.188
E44Y	-0.26
S43T	-0.0213
A40L	-0.183
A49T	-0.494
T37E	-0.0605
A40E	-0.079
S43R	0.041
L31M	-0.178
S47N	-0.112
R53T	-0.393
K39Q	-0.229
I28P	-0.226
R53Q	-0.235
E44K	-0.151
K36V	-0.207
E44F	-0.248
L45E	-1.42

Block 6 — technique: universal PBM; form: double-stranded DNA, one strand shown; matrix: in vitro; tested at: 600 nM; direction: higher = stronger binding
Target: Sal-like protein 4, full length isoform A (SALL4, Homo sapiens, UniProt Q9UJQ4, residues 1-1053)
UniProt Q9UJQ4, sequence (whole entry, looked up): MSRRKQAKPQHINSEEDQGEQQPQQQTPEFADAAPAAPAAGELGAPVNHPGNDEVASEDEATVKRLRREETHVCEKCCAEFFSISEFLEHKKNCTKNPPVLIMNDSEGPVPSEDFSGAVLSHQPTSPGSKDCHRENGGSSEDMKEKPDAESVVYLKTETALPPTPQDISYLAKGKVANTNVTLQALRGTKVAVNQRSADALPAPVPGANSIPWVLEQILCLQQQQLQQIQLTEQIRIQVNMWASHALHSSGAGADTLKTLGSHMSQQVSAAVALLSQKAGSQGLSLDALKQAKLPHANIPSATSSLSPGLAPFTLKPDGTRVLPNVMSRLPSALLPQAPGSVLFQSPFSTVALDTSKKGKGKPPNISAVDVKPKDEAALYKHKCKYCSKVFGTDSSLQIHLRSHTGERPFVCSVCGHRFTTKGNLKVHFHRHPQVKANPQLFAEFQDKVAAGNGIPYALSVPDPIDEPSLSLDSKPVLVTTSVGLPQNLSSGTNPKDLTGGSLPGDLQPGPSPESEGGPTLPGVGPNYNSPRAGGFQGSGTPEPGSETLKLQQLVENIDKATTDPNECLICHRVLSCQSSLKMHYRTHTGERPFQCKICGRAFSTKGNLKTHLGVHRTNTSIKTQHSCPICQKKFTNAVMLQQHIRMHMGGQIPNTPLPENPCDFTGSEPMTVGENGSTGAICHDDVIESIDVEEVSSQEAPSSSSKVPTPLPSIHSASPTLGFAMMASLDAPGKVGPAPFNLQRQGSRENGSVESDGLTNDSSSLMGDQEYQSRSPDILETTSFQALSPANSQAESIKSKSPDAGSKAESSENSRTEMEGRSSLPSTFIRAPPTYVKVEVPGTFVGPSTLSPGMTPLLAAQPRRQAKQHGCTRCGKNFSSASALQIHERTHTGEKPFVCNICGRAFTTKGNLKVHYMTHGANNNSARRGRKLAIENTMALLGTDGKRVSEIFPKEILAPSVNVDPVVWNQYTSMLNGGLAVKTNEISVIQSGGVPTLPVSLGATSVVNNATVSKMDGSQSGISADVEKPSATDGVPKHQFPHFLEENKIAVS
Notes: 8-mer, flanks averaged, mean of replicates
Sequence	E-score
TGAGGGAA	0.0354
CTGCGCGA	-0.128
CCCCTGCG	-0.253
ACTGGAGA	-0.135
GGAGAAAC	-0.0988
CCCTCATA	-0.0328
CACACGGG	-0.236
ACTTGGAG	-0.141
CCACCGTA	-0.117
ATCCCGAT	0.0127
ACACAATA	0.269
ATCCATAA	0.396
CAACGGGG	-0.195
ACCAGGCG	-0.36
ACTGTGGG	-0.267
AAACAGTT	0.215
ACTGCGAG	-0.171
CATATGCG	0.127
GATGGAAA	0.0937
CGGCAGAG	-0.306
ATCGAGGG	-0.126
GTGCTTCA	0.0265
ATGCCATA	0.22
CAGGCCTG	-0.28
CCGCATCC	-0.315

Single results of other studies
Molecule	target	test	test system	conditions	how to read	quantity	result
PhoQ, residues 284 288 289 292 302 303 GTAMQF	PhoP, residues 12 14 15 18 19 LHHVQ (Escherichia coli, UniProt P23836)	Sort-seq, measured: YFP reporter	E. coli	PhoQ-PhoP variant library, added: 10 µM Mg2+	baseline: high Mg2+ state, higher = stronger signaling	fold induction	3.44

Excerpt of the above (block 2):
Sequence	fluorescence intensity [a.u.]
AGTAACTACGTAAATCACCTGCTACCTCTCTGTTCTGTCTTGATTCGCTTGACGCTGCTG	4850
TAATTCCAGGTTGAGCGCGTGGCCGCCTATAATCCAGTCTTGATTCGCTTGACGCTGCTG	10300
GTATTGTAAGACTGTCATGTGATTGCTGTCGCGTTCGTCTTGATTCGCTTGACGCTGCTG	6950
CATACCCAACCTTGTCACCCTACTTAAGATATTTGTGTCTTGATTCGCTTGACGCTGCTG	4220
TGCGCAACAACTTGGATCGTGGGTGTATGTCTAGAAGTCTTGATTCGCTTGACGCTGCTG	7770
CTAACGAAGGTTTGGCACGTGTTTTACAAGCCAAGTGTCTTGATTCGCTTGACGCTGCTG	18100
GAGTAAAGATGTTAGCACGTGATGGGCTGCAGAGGTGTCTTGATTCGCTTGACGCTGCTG	18600
CGTCCTAGCGATTGAGAGGTGGGTGCCATGAGGAAGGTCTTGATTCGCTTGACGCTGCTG	6650
AAATTACTAAGTTGTCGCGTGGGTGACGCCGTATGAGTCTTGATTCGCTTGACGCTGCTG	9710
TGTCTTTCACCTTGTCACGGGCGCTTAGCTCCAATTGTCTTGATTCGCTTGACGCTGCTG	5600
CAAAACGTTCGTTTCTGCGTGCCAGTCTTCTCCACTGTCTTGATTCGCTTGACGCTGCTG	7790
ATCTTTCGGAATTGTGAGGTGCAGGGATGCGGACTTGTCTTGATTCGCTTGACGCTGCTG	4500
TCGTTTCCTAACTGGCACGTCACTTATAACGAGGTGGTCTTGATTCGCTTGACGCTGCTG	6920
GCTCAAAAACCCCGTCACGTCATAAATCTTTCTGTTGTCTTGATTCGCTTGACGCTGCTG	4640
GCGGTGAAAAGTGCAAATGTGATGACAGCACCGGAAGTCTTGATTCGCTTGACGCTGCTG	3340
AAATTACTAAGTTCGCACGTGTTTTACCCCGTATGAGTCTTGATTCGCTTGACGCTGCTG	19800
CCAACAAACGGAACACACGTGCGGAAGTTTCAAAGGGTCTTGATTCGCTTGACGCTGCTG	17700
GTAATACATTTTCATCACATGAGAGTGTTCATTCAAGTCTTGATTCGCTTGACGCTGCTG	5800
CTAACGAAGGTTTGGGCTGTGGGTGACAAGCCAAGTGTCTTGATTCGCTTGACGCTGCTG	4250
CAACCAACTGACGAAACCGTGATGGTTATCAGAACTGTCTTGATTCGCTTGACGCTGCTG	5100
AAGACCGGTGCTTTGACCGTTTCCAATACGGAAAGAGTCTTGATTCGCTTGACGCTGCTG	3410
